Measured values pooled from the literature.
Each line is one published result; not all experiments were run side by side.
Cell line: THP-1

O=c1c(O)c(-c2ccc(O)c(O)c2)oc2cc(O)cc(O)c12 gave an IC50 of 37 µM (cell growth or viability, ATP luminescence; 24 h).
Under IRF3 activation, O=C(O)Cc1cccc2c(=O)cc(-c3ccccc3)oc12 is recorded as “inactive” (IRF3 luciferase reporter; up to 1 mM, 4 h, added: c-di-GMP).
With CCCC1(C)C(C#N)(C#N)C1(C#N)C#N the IC50 was 2.32 µM (TNF-α production, HTRF; 17 h, added: 1 µg/mL LPS).
COc1ccc(-c2cc(=O)c3cc(OC)ccc3o2)c(OC)c1 — result for “Emax of redox index”: 0.74 (antioxidant effect, OPT fluorometric glutathione, refers to: GSH/(GSH + GSSG); cell extract; relative to: 1 = all glutathione reduced, higher = more antioxidant).
For O=C(O)c1cc(O)c2c(c1)C(=O)c1cccc(O)c1C2=O, the IC50 was 158 µM (cell growth or viability, ATP luminescence; 24 h).
With C[C@]12CCC(=O)C=C1C=C[C@@H]1[C@@H]2CC[C@@]2(C)[C@H]1CC[C@@]21CCC(=O)O1 the EC50 was over 100 µM (antioxidant effect, OPT fluorometric glutathione, refers to: redox index GSH/total glutathione; cell extract).
For O=c1cc(-c2ccc(O)cc2)oc2cc(O)cc(O)c12, the IC50 was 180 µM (cell growth or viability, ATP luminescence; 24 h).
With COc1c(OC)c(O)c2c(=O)cc(-c3ccc(O)cc3)oc2c1OC the EC50 was 4.59 µM (antioxidant effect, OPT fluorometric glutathione, refers to: redox index GSH/total glutathione; cell extract).
With CC(C)(C)c1ccc(S(=O)(=O)/C=C/C#N)cc1 the IC50 was 0.293 µM (TNF-α release, inhibitor, ELISA; 17 h, LPS-stimulated).
The IC50 of C(=C\c1ccccc1)/c1ccccc1 is reported as 380 µM (cell growth or viability, ATP luminescence; 24 h).
O=C(Nc1nc2ccccc2n1CCN1CCOCC1)c1cccc([N+](=O)[O-])c1 has an IC50 of 0.52 µM (TNF-α release, inhibitor, ELISA; 17 h, LPS-stimulated).
C=C1C(=O)O[C@@H]2[C@H]1CC[C@H](C)[C@@H]1CCC(=O)[C@@]21C has an EC50 of over 100 µM (antioxidant effect, OPT fluorometric glutathione, refers to: redox index GSH/total glutathione; cell extract).

Excerpt of the above:
With CC(C)(C)c1ccc(S(=O)(=O)/C=C/C#N)cc1 the IC50 was 0.293 µM (TNF-α release, inhibitor, ELISA; 17 h, LPS-stimulated).
